Experimental data of several laboratories.
Parts stem from different laboratories: compare values within a part only. Changes are numbered by the printed parent chain.

Sample 1
Target: Prothrombin, mature alpha-thrombin (F2, Homo sapiens, UniProt P00734)
Technique: aptamer microarray, sandwich
Form: DNA with 2'F-ANA
Matrix: in vitro
Concentration: 200 nM
Notes: whole 15-mer aptamer, many near background
Together with: Cy3 exosite-II aptamer, 400 nM
Direction: higher = stronger binding
Oligonucleotide: GGTTGGTGTGGTTGG
Modification | mean fluorescence intensity [a.u.]
2'F-ANA at 5 8 11 14 | 44.3
2'F-ANA at 2 4 7 8 9 10 11 12 | 179
2'F-ANA at 1 9 12 13 14 | 58.9
2'F-ANA at 2 5 6 11 12 | 125
2'F-ANA at 1 3 4 8 9 10 11 13 | 56.7
2'F-ANA at 6 7 9 14 15 | 180
2'F-ANA at 2 4 5 7 9 11 12 14 15 | 61.3
2'F-ANA at 1 2 5 8 9 10 11 12 13 15 | 50.9
2'F-ANA at 2 3 5 6 9 10 11 12 | 58.3
2'F-ANA at 3 4 6 7 11 12 14 15 | 317
2'F-ANA at 1 2 4 6 8 12 13 | 221
2'F-ANA at 1 2 5 6 8 9 11 | 72.8
2'F-ANA at 1 3 4 5 8 9 10 11 12 13 | 58.2
2'F-ANA at 3 4 10 13 15 | 278
2'F-ANA at 1 4 5 6 7 8 9 10 12 13 14 15 | 50.5
2'F-ANA at 4 7 9 10 12 14 | 102
2'F-ANA at 1 5 7 9 12 13 | 71.2
2'F-ANA at 3 6 8 11 12 13 | 1110
2'F-ANA at 4 5 7 10 12 | 97.5

Sample 2
Target: Interferon regulatory factor 7, full length, phosphomimetic (IRF7, Homo sapiens, UniProt Q92985, residues 1-503, S471D/S472D/S475D/S476D/S477D/S483D/S484D/S487D)
Technique: protein-binding microarray
Form: double-stranded DNA, one strand shown
Matrix: in vitro
Concentration: 2200 nM top
Notes: 60-bp whole probe
Together with: salmon DNA 0.4 mg/ml
Baseline: random background probes
Direction: higher = stronger binding
All sequences stand within: GCCTAGCAC … GTCTTGATTCGCTTGACGCTGCTG
Construct (chain): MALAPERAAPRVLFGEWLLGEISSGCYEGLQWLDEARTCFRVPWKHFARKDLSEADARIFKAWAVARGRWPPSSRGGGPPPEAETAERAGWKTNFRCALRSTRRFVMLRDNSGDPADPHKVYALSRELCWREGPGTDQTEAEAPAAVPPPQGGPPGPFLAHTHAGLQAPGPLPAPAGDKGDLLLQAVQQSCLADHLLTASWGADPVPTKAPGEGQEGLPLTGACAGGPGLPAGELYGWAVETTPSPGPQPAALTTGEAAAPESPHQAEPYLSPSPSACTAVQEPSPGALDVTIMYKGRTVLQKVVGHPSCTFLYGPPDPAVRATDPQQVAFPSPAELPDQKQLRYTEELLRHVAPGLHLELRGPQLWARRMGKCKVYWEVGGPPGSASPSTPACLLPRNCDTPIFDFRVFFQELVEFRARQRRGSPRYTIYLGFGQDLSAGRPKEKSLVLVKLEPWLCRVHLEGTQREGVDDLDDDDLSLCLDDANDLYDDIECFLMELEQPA
Oligonucleotide | fitted relative affinity [z-score]
TCACTTCTGGACTGTTTGACTGTGCTA | 1.45
GACGAACTGTGTTTCGAGACGTGCTAG | 1.2
GACGGTTTCGACTATCGGGCCGTGCTA | 3.32
TTATATCTCAGACTGGATTAGTGCTAG | 0.626
GAAGTTCTTTTTTTCAAGAAGTGCTAG | -0.345
GACGGTATCTACACTGGGGACGTGCTA | -0.115
GTAGAACTGAGTTTCGATTAGTGCTAG | 3.8
TTCAGTCCCCTCTTCTGGATGTGCTAG | 1.18
AAACAAATAAGCCTTACTTGGTGCTAG | -0.544
TCATAAACTAGAAACTGAACTGTGCTA | -0.703
TTAGGTTTCGAATATCGGTTAGTGCTA | 2.03
GACGAACTGCGTATCGAGACGTGCTAG | 0.0352
TTAGGTCTCGGTATCGGCTAGTGCTAG | 0.482
GACGGACGGGGTCTCGGGACGTGCTAG | -0.773
GTAGTAATGAATATAATACCGTGCTAG | -0.392
TCTCTGCTCCTTCTGACATCGTGCTAG | 1.77
GAGGGTCTCCTACTGCTGACGTGCTAG | -0.137
TTAGATATCAGTATCGAGTAGTGCTAG | 0.087
TTAGGTCTCCTTCTACTTTAGTGCTAG | 1.01
TTAGGTTTCGGCTATCGGTTAGTGCTA | 3.22
TTGCTGAAATAATACTGTTAGTGCTAG | -0.287
GACGGACTTGGGTTTCGGGACGTGCTA | 0.825
GACGGTGTCCTTTCCCTGACGTGCTAG | 0.907
TTAGATATCAGAATGGATTAGTGCTAG | -0.544
TTAGGTCTCGGACTGGATTAGTGCTAG | 0.044

Sample 3
Target: Histone acetyltransferase KAT6A, winged helix 1, GST fusion (KAT6A, Homo sapiens, UniProt Q92794, residues 1-85)
Technique: protein binding microarray
Form: double-stranded DNA, one strand shown
Matrix: in vitro
Concentration: not given
Notes: 8-mer, flanks averaged, mean of 2 arrays, mostly near background
Baseline: not given
Direction: higher = stronger binding
Construct (chain): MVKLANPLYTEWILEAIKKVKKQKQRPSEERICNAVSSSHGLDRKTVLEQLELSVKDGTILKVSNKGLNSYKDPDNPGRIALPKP
Oligonucleotide | E-score
GGTGCTAA | -0.0575
CCTCGGTA | 0.0441
ACACGCCG | 0.365
TACAGACA | -0.119
AAGTGCCA | -0.261
AATCGGCA | 0.178
CTATGTGA | -0.122
CATAAGTA | -0.085
CCACAGAC | -0.223
ACAACAAT | -0.242
CTCGAGAC | -0.136
CACCGAGG | 0.0702
ATTTAGAC | -0.21
ATGTAGCA | -0.19
GCGGTCAA | 0.328
CTAAGGTA | 0.00288
AGTGGTTC | -0.112
CTGATCTA | -0.12
ACGTAGTA | 0.0357
AGTCTCGA | -0.183
AAACTGTG | -0.274
ACGACAAC | -0.0815
ACATGATA | -0.0527
ACATAGCC | -0.0648

Sample 4
Target: RNA binding protein fox-1 homolog 2, RRM domain, GST-SBP tag (RBFOX2, Homo sapiens, UniProt O43251-10, residues 100-194)
Technique: RNA Bind-n-Seq
Form: RNA
Matrix: in vitro
Concentration: 365 nM
Notes: natural RNA segment, single round, ends assumed
Baseline: no-protein control
Direction: higher = stronger binding
All sequences stand within: GGGAGUUCUACAGUCCGACGAUC … UGGAAUUCUCGGGUGCCAA
Target sequence (chain): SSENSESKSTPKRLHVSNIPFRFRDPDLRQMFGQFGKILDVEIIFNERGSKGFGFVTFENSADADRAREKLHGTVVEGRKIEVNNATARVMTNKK
Oligonucleotide | RBNS enrichment (R)
UGAGAUGCAAGAGCAUUUAGCAUACCAUGUAAAUAUGGACCUUUUAAAAUUAAAAUACUAUUGGAAGUGCUUUCAACUCAGCCACAUCUUAGCUAUUAGUUCUUUGUGUU | 0.473
UUAAGACAGGUGCACUAAUGAUAACCAUUCCUUCACCAAGUAGCAACAUUCUUGCCAGAGUUCUUGGGAAACCUGUUUUUUUCUCUACUCUCCAUCUCUGCUGCUCUCAU | 0.483
UCUUCCCGGGAGCCCAGCGCAGCCCCCGGCUCUUACCCAGGACCCCGCCCCGUGCUGAGCCUUCUGCUGAGGUCCUUGCGUGGAGCACACUCAUUCCUCCAAGCCCUUGC | 0.499
UUUUGAAUGUCCCACUGGACUAACCUUUCUUUUGAUGUGUGUUUUUAGUUUAGAAGUGCUAUAUUCCACAAGGGUUAAGUCAAUGAGGUUGGAAGACACCUAUCUUUUUU | 0.728
GCUUUAAGUGUGGUUGGUUUAGGAGAGUUUUCCUUGGGAGAGCUAGCCCUGAGGUAGUCAGGGCUAGCUCCGGAUGGCUGGAGAAGCUGACCUUGUGCCUUAAGUCUACU | 0.243
UGGUGCCCUGGGCCGUCCCUGUGUGAACGCAGGCAAAAGCAGCCCAGUCCCCCUCACUGCUUGAGCUAACACUGCCACCUCUUUUGUGUGAGCACAAAAGCCACGUCCCA | 0.178
UAGGCUUGCUAAUUGAUAACUGCAGCAGUUUGUGUUUACUCCAGUUCAUCAGCUUAGGUCAUUUGAAAGAUAUAAGAGCUUAAGGCAAGAAAGAAAUAACAUGGAAUUCU | 1.21
UUUUGUUCUGUUGAUGAAGCAAAUUUGACAGAAUAUUAUUUCUCCAUAUCACACAUAUCUACACUAUUAUCUGAUAACACACUGGUAGUUUUUAAGACUAAGGCAGUUUA | 0.462
CUCCUUCCUGAUGGUCGCCCGUCCUCCCCUUUUGACGGAUGGUAUUCUUUCCUAACUCCCUCUGUUUUGUUUAAUUUUGGCUUUAGGUUUGCUGUCACUGGUCAUAUGGC | 0.51
CCACGGAUUUCUGCACACUCUGGGUCUGUGCUGGUGGAACAUUGCCAAUCAGUUCUUAAUGAGGCACCUGUGUGUAAAUACAUGCUUGGUCUUCUCUGCAGAGAACUGAG | 0.664
ACUGAGAACGUGAACUCGGUCUUCCUUCCAGCUGUCGUCAGGAUCUUGGAGGUGUACACUUACUUAAAUUCAGUAUUACUUGUGUGUGUUUUCAUUUUUUUGUUGUUGUU | 0.567
CAAUUUUGUAGGAUUACAAAAAAGCCAUUAAUAUGCCAGUCAAGACUACAGUUAAAACUACUCUUGCACUGCAACAGUGCAUAUGACCUUUAUGUGAUUGUACAGUAUUA | 0.286

Sample 5
Target: CCNF, cyclin fold, Cln2 fusion (human)
Technique: yeast growth competition, sequencing
Matrix: yeast
Notes: strong parent motif
Baseline: not given
Direction: higher = stronger binding
Starting sequence: E2F1 docking peptide (human); PPVKRRLDFETDH; partner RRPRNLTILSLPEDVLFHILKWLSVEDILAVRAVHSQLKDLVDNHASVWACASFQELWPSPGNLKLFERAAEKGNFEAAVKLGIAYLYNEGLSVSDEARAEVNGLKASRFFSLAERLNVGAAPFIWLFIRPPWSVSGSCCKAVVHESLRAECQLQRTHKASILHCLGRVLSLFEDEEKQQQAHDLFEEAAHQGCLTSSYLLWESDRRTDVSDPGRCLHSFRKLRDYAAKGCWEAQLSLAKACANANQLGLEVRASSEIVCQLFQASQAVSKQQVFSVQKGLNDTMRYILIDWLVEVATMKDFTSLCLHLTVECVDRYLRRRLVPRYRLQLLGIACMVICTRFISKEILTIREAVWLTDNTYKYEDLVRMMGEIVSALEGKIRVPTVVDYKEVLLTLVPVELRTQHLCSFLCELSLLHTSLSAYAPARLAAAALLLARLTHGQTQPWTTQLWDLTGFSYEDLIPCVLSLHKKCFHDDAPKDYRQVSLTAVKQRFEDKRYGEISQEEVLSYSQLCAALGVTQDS
Variant | normalised enrichment score
PPVKRRIDFETDH [L7I] | 6.67
PPVKRRLDFENDH [T11N] | 7.4
PPVKRRLDFETAH [D12A] | 8.06
PPIKRRLDFETDH [V3I] | 7.16
PPMKRRLDFETDH [V3M] | 6.08
PPVKRRLDFEGDH [T11G] | 7.44
PPVKRRLEFETDH [D8E] | 7.25
PPVKRRTDFETDH [L7T] | 0.151
PMVKRRLDFETDH [P2M] | 8
PPVKRRLDFHTDH [E10H] | 8.04
PPVYRRLDFETDH [K4Y] | 6.53
PPVKWRLDFETDH [R5W] | -0.157
PPVKRRLDFFTDH [E10F] | 8.45
PPVKRILDFETDH [R6I] | 6.07
PPVKRRLDFEMDH [T11M] | 7.35
PPVKRRLGFETDH [D8G] | 7.78
PPYKRRLDFETDH [V3Y] | 7.17
PPVLRRLDFETDH [K4L] | 5.92
PPVKRRLDFKTDH [E10K] | 7.89
PPVKRNLDFETDH [R6N] | 5.31
PVVKRRLDFETDH [P2V] | 7.88
PTVKRRLDFETDH [P2T] | 7.73
PPVMRRLDFETDH [K4M] | 6.93

Excerpt of the above (sample 3):
Oligonucleotide | E-score
AATCGGCA | 0.178
CTCGAGAC | -0.136
ACATAGCC | -0.0648
CTGATCTA | -0.12
ACGACAAC | -0.0815
ATTTAGAC | -0.21
CCTCGGTA | 0.0441
GGTGCTAA | -0.0575
ACAACAAT | -0.242
CACCGAGG | 0.0702
